Measurements of several laboratories.
Every numbered part comes from another study and shows a few of its results, in no order.

Sample 1 — method: RNA Bind-n-Seq; form: RNA; sample: in vitro; tested at: 200 nM; setting: whole 134-nt RNA, ends assumed; added: 150 mM LiCl; baseline: input library; direction: higher = stronger binding; quantity: log2 enrichment; all molecules: 7-deaza-guanosine replaces G
Target: Fragile X messenger ribonucleoprotein 1, C-terminal low-complexity region (Fmr1, Mus musculus, UniProt P35922)
Shared flanks, not repeated: GGGAGUUCUACAGUCCGACGAUC … UGGAAUUCUCGGGUGUCAAGG
UGGGAGGUGGAUUUUGUUUACUUUUUUAGCUCAUUUCCAGGGGUGGGAAUUUUUUUUUAAUAUGUGUCAUGAAUAAAGUUGUUUUUGAAA: 0.138
UGGGAGGUGGAUUCUGUUUAUUUUUUUAGCUCAUUUCCAGGGGUGGGAAUUUUUUUUUAAUAUGUGUCAUGAAUAAAGUUGUUUUUGAAA: 0.934
UCAAGUCCUGUGCUACACAUCGUAUGUACCGAAUCGGGAAGGGGAAGGGAAGGGAAAGUAUUAUGUUACGCCGUUCGGAUCUGCACUUCC: -0.997
UGGGAGGUGGAUUUUGUUUAUUUUUUUAGCUCAUUUCCAGGGGUGGGAAUUUUUUUUUAAUAUGUGUCAUGAAUAAGGUUGUUUUUGAAA: 0.218
CCUGUGCUACACAUCGUAUGUACCGAAUCGGGGCCCCCCGGGGCCCCCCGGCCCCCCGGGGAAAGUAUUAUGUUACGCCGUUCGGAUCUG: -2.34
UCCUCAAGUCCUGUGCUACACAUCGUAUGUACCGAAUCGGCGGGGCGGCGGGAAAGUAUUAUGUUACGCCGUUCGGAUCUGCACUUCCAG: 1.13

Sample 2 — method: protein-binding microarray; form: double-stranded DNA, one strand shown; sample: in vitro; tested at: 2540 nM top; setting: 60-bp whole probe; added: salmon DNA 0.4 mg/ml; baseline: random background probes; direction: higher = stronger binding; quantity: fitted relative affinity; shared flanks, not repeated: GCCTAGCAC … GTCTTGATTCGCTTGACGCTGCTG
Target: Interferon regulatory factor 3, full length, phosphomimetic (IRF3, Homo sapiens, UniProt Q14653, residues 1-427, S386D/S396D/S398D/S402D/T404D/S405D)
Sequence of UniProt Q14653 (whole entry, unmodified, looked up): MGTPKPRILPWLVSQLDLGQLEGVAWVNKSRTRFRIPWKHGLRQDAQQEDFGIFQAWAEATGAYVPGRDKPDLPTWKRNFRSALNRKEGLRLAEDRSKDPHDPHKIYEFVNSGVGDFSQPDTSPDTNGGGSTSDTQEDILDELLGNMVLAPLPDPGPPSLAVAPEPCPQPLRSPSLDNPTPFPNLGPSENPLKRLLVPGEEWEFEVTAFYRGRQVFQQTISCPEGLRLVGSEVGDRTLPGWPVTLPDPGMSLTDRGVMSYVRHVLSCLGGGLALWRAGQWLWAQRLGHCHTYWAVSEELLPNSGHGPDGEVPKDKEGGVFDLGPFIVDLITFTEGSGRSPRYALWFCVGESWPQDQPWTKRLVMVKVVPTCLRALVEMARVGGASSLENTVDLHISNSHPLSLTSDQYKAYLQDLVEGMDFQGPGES
TTAGGTTTCGGGACTGGGATAGTGCTA: 4.35 z-score
GGTCTTCTGGACTGTTTGGTCGTGCTA: -0.198 z-score
GACGGCCTCGGACTGGGGACGTGCTAG: -0.886 z-score
GACGGTCTCCTTCCCCTGACGTGCTAG: 1.35 z-score
GACGGTTTCCTTTCCCCGACGTGCTAG: 10.6 z-score
GACGGTCTCCATCTCCTGACGTGCTAG: 2.84 z-score
TCAAAACTCTTTATTTAACTGTGCTAG: -0.074 z-score

Sample 3 — method: protein binding microarray; form: double-stranded DNA, one strand shown; sample: in vitro; tested at: not given; baseline: not given; direction: higher = stronger binding; quantity: E-score
Target: Histone acetyltransferase KAT6A, winged helix 2, GST fusion (KAT6A, Homo sapiens, UniProt Q92794, residues 85-181)
Setting: 8-mer, flanks averaged, mean of 2 arrays, mostly near background
Residues (chain): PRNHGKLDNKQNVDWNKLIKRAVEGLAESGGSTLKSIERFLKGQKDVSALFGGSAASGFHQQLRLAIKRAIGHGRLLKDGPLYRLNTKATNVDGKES
ATGAAGGA: 0.0584
GGGCCGCA: 0.208
CGACTTTC: -0.0965
ATTAGCGG: -0.0185
TATCGACA: 0.0623
CTGGGTGC: 0.0893

Other studies, line by line
PhoQ, residues 284 288 289 292 302 303 ASHLAV
fold induction (PhoP, residues 12 14 15 18 19 YHFSH (Escherichia coli, UniProt P23836); Sort-seq, item: YFP reporter; E. coli; PhoQ-PhoP variant library, added: 10 µM Mg2+; baseline: high Mg2+ state, higher = stronger signaling): 7.87
